# Experimental data of several laboratories.
# A part holds a random share of what one study measured. Positions count from the first letter of the parent shown.

# Set 1 — technique: protein binding microarray; form: double-stranded DNA, one strand shown; matrix: in vitro; tested at: not given; baseline: not given; reading: higher = stronger binding
# Target: Histone acetyltransferase KAT6A, both winged helices, GST fusion (KAT6A, Homo sapiens, UniProt Q92794, residues 1-181)
# Setting: 8-mer, flanks averaged, mean of 2 arrays, mostly near background
# Residues (chain): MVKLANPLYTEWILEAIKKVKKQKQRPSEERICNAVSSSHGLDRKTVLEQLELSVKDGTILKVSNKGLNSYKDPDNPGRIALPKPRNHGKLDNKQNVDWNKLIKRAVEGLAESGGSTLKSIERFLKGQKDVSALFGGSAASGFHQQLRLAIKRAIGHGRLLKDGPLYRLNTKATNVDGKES
Sequence,E-score
GGGTGCAA,-0.159
TCGGCTAA,0.272
CAACGGGC,0.158
GGTGGCCA,-0.204
CACTATAC,-0.0947
ACTCGAGA,-0.0424
AGCAGGGC,-0.0426
CCGTACGG,0.384
AGCTAACA,-0.162
CAAGACCG,0.162
ACGTATTA,0.00177
TCGATTCA,-0.0671

# Set 2 — technique: competition protein-binding microarray; form: double-stranded DNA, one strand shown; matrix: in vitro; tested at: 2 µM; together with: Cbf1 competitor, 0.05 µM; reading: higher = stronger binding; all sequences stand within: … GTCTTGATTCGCTTGACGCTGCTG
# Target: Phosphate system positive regulatory protein PHO4, full length, GST-tagged (PHO4, Saccharomyces cerevisiae, UniProt P07270, residues 1-312)
# Setting: whole 60-bp probe, lowest competitor level
# Residues (chain): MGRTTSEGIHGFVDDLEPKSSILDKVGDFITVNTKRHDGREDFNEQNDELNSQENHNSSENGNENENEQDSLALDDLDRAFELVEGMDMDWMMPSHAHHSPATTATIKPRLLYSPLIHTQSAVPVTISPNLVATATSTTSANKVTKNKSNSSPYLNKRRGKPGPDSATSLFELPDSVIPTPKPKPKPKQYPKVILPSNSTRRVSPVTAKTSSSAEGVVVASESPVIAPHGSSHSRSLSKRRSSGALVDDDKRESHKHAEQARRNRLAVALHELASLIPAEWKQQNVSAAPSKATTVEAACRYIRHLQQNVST
Sequence,fluorescence intensity [a.u.]
AAATGGAACGATAGGAACGTGTAACCTACCGCTTCT,10900
GACACATTTGCCAAACACATGACAGAAGTGGCAATG,8630
AAAGCGGTAATTTGGCAGGTGGGTGCAGATATCTAT,7470
CTGGCTCATATGCCACACATGTCAGTAGGTTCATAG,10500
CGGGGTTAAGTTTGACTAGTGGGTGGCTTGCAGCAG,4060
AAATTACTAAGTTGGAGCGTGGGTGACGCCGTATGA,8530
TGTAGAAGCAAAAAGCACGTCGCCTTGGCTGATGAG,7020
CTTTCCCGATCTTGCCCAGTGGGTGTAGCACATTTG,4180
CGTCCTAGTGATTTTCACGTGAACTCCATGAGGAAG,9360
GGCCACCTTGATCTGCATGTTTCTTCTAGGTGAGCT,5270

# Set 3 — target: CCND1, cyclin fold, Cln2 fusion (human); technique: yeast growth competition, sequencing; matrix: yeast; setting: weak parent motif; baseline: not given; reading: higher = stronger binding
# Parent: CDC25A docking peptide (human); PPHRRRLLFACSP; partner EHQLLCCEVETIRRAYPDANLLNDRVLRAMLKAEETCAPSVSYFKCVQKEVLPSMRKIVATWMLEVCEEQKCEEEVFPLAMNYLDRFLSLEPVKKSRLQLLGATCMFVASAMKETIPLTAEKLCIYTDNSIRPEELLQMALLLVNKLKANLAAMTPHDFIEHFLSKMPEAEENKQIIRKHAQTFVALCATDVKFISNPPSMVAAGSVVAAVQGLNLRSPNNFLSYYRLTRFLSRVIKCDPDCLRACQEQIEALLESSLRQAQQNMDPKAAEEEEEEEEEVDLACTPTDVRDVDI
Substitution,normalised enrichment score
S12N,0.628
H3I,0.0965
C11D,-0.385
L7G,-0.144
R5V,0.578
L7D,-0.0372
R6I,-0.0961
A10G,0.282
S12K,0.145
F9M,-0.156
H3Y,0.279
S12T,0.253
H3T,0.0807

# Further values, each from its own experiment
Molecule,target,assay,system,setting,how to read,quantity,value
"PhoQ, residues 284 288 289 292 302 303 SMMNNA","PhoP, residues 12 14 15 18 19 IQFRS (Escherichia coli, UniProt P23836)","Sort-seq, item: YFP reporter",E. coli,"PhoQ-PhoP variant library, together with: 10 µM Mg2+","baseline: high Mg2+ state, higher = stronger signaling",fold induction,14.2

# Repeated from above (set 1):
Sequence,E-score
CAAGACCG,0.162
ACGTATTA,0.00177
TCGATTCA,-0.0671
